Results pooled from the literature.
“And” joins repeats or separate records; there may be more than shown. ± gives the spread as reported.
Sequence of UniProt Q8NER1 (whole entry, looked up): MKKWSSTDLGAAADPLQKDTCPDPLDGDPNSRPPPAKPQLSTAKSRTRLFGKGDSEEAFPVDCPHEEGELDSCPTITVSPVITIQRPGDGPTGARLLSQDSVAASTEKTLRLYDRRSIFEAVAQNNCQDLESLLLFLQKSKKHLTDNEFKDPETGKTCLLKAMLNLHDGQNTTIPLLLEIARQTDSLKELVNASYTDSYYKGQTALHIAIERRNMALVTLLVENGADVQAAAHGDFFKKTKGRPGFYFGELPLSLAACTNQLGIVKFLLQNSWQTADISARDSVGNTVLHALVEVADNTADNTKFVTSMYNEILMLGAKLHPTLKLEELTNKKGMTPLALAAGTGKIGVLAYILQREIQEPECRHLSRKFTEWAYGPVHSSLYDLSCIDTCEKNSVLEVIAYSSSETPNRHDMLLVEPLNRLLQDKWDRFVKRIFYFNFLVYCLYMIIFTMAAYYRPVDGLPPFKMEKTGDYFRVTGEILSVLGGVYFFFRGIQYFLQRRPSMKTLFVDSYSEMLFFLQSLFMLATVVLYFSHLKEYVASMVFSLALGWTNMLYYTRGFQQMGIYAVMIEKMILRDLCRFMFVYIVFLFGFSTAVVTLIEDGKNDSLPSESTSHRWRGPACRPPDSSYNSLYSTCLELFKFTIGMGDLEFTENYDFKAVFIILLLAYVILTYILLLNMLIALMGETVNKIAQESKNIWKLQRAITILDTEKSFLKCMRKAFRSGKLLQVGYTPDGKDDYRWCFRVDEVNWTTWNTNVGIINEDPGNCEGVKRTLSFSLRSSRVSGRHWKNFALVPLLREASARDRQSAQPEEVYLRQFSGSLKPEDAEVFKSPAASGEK
Sequence of UniProt P22736 (whole entry, looked up): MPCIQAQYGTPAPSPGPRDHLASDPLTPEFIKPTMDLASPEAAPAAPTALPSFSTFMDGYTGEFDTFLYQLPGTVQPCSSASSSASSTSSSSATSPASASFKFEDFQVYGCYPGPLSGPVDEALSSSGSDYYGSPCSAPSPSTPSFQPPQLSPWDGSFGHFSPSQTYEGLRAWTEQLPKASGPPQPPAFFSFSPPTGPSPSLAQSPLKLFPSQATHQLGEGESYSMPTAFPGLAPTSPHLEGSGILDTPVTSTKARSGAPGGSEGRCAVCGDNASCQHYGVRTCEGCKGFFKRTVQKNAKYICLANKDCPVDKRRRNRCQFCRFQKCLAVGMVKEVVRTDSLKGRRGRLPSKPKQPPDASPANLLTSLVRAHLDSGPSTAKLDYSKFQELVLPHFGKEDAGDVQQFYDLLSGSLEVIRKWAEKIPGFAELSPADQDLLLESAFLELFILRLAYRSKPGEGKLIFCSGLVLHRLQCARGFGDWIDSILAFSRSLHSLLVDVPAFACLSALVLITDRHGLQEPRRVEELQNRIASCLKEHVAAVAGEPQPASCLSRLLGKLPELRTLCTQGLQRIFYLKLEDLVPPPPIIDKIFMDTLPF
Sequence of UniProt Q14524 (whole entry, looked up): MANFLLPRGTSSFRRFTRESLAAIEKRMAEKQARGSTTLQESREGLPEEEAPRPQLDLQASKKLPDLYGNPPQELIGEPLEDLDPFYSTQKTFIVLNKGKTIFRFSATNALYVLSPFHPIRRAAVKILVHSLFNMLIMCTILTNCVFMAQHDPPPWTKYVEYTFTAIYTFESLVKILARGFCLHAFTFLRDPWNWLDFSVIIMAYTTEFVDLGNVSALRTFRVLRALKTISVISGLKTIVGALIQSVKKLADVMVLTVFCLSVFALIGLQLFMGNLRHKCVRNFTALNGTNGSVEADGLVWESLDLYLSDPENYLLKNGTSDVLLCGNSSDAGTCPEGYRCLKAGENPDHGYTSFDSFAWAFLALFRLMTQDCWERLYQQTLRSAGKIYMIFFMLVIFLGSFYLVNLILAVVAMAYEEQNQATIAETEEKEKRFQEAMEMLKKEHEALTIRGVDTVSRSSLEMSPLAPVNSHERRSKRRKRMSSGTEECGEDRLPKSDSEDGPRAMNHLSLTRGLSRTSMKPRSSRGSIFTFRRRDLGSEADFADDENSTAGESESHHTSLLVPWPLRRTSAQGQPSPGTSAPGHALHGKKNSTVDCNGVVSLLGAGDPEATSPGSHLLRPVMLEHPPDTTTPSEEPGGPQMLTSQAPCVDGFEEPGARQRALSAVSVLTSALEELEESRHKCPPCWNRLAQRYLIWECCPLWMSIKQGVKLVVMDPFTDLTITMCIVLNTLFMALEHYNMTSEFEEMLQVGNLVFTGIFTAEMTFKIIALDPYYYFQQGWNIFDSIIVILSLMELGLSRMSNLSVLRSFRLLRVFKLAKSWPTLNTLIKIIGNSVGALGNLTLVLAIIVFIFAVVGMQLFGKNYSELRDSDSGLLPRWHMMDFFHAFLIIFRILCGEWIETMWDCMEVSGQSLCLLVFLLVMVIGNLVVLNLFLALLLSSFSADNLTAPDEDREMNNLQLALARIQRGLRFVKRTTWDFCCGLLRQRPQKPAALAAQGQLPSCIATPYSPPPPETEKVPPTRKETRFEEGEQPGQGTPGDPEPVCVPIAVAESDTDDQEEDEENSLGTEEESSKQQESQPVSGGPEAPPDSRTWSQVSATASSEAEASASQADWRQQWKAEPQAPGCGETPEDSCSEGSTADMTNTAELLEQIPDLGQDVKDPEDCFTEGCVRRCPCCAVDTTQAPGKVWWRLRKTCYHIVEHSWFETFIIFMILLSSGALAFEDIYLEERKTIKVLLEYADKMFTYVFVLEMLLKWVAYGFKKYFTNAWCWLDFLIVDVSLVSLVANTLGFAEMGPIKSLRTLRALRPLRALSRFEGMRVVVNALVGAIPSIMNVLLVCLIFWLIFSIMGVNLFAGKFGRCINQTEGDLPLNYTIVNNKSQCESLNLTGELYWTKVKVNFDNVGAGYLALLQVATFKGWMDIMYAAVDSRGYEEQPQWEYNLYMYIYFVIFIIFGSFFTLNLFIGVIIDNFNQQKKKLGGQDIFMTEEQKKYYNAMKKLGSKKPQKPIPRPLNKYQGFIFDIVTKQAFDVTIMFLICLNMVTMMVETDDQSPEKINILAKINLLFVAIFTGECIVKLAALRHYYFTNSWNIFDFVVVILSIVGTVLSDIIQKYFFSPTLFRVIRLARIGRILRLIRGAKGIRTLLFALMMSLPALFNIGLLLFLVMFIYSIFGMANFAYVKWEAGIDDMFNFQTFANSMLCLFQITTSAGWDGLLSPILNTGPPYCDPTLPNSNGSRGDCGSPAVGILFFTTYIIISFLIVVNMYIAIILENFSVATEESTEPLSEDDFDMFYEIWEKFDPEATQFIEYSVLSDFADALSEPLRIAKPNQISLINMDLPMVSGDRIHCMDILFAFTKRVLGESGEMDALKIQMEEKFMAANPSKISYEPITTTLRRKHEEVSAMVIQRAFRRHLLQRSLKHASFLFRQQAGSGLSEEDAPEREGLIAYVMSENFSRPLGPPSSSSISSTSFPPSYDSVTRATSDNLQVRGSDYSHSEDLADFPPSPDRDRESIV
Sequence of UniProt P14618 (whole entry, looked up): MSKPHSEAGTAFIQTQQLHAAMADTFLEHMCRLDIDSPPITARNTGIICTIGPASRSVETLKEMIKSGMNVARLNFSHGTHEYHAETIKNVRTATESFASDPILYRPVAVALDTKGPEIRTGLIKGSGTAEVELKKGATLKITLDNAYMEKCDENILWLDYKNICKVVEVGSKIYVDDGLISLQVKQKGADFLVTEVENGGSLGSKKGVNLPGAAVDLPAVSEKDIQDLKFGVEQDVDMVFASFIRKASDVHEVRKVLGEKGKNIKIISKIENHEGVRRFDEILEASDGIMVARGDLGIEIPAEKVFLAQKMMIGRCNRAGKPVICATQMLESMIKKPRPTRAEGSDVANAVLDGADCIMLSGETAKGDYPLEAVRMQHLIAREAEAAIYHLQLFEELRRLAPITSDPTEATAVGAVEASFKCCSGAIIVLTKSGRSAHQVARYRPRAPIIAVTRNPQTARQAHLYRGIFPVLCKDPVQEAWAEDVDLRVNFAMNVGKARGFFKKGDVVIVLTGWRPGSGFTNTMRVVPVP
Sequence of UniProt P00441 (whole entry, unmodified, looked up): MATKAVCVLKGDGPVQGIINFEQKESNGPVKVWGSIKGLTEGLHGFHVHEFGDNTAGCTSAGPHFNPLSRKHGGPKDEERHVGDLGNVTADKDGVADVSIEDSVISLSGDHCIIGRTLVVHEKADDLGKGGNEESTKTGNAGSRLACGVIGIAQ
Sequence of UniProt P48729 (whole entry, looked up): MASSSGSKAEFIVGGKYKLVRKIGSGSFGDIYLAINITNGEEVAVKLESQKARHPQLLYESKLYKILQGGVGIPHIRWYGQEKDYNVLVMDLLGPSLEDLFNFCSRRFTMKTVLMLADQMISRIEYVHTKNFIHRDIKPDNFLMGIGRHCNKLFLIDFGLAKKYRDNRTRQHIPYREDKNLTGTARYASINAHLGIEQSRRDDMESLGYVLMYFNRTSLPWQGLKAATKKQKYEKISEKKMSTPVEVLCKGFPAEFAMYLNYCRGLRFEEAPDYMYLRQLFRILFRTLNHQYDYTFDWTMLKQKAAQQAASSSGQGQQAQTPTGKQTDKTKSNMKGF
Sequence of UniProt Q96SW2 (whole entry, looked up): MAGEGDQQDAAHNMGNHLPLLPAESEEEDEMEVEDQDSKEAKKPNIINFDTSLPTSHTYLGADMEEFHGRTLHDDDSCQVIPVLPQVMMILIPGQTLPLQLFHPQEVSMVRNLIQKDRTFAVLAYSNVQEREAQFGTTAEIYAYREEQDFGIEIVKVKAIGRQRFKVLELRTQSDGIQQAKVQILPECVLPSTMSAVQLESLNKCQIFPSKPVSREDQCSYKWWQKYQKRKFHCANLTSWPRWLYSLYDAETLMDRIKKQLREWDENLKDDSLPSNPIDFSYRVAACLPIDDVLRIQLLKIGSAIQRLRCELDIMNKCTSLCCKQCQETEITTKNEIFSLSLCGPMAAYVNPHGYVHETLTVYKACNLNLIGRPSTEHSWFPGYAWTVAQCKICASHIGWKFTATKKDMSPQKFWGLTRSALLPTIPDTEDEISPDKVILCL

| Compound | target | test | test system | conditions | how to read | measurement | value |
| --- | --- | --- | --- | --- | --- | --- | --- |
| N=C(N)NCCC[C@H](N)C(=O)O | uncharacterized protein (Pelagibacter ubique, UniProt Q4FLC2) | isothermal titration calorimetry | Candidatus Pelagibacter ubique | displacement titration, with: octopine competitor 250 µM | – | Ka | 5.7e+10 M⁻¹ and 5.71e+10 M⁻¹ |
| [O-][S+]1CCCCS1 (stereo not drawn) | Superoxide dismutase [Cu-Zn] (SOD1, Homo sapiens, UniProt P00441, G94A) | LC-MS | brain homogenate | 1000 µM, 1 h, 37 °C | – | SOD1 monomer fraction | 0% |
| COc1cc(CNC(=O)CCCC/C=C/C(C)C)ccc1O | Transient receptor potential cation channel subfamily V member 1 (TRPV1, Homo sapiens, UniProt Q8NER1) | channel activation, FLIPR calcium | HEK293T | 0.00102 µM | higher = more activation | calcium response | 2.94 a.u. and 5.71 a.u. and -3.37 a.u. and -4.15 a.u. |
| O=C1CCC(N2Cc3cc(CNC(=O)c4ccc(F)cc4)ccc3C2=O)C(=O)N1 (stereo not drawn) | Cereblon/Casein kinase I alpha (CSNK1A1/CRBN, Homo sapiens, UniProt P48729+Q96SW2) | degrader, live-cell HiBiT kinetic | HEK293 LgBiT | 10 µM | – | degradation rate constant | 0.1 h⁻¹ |
| CC(=O)N[C@H](C(=O)N1C[C@H](O)C[C@H]1C(=O)NCc1ccc(-c2scnc2C)cc1)C(C)(C)SCCCCCCNC(=O)C[C@@H]1N=C(c2ccc(Cl)cc2)c2c(sc(C)c2C)-n2c(C)nnc21 | Bromodomain-containing protein 2, BD1 (BRD2, Homo sapiens, UniProt P25440) | binding, ITC | – | 25 °C, compound in cell, protein in syringe | – | −TΔS | 6.7 ± 0.7 kcal/mol |
| Cc1cccc(N2CC(C(=O)O)CC2=O)c1 (stereo not drawn) | FBXW7 (Homo sapiens, UniProt Q969H0) | binding, affinity selection mass spectrometry | – | – | relative to: other proteins in batch | fold enrichment | 0.961 |
| O=c1cc(-c2ccc([N+](=O)[O-])cc2)[nH]c2c(-c3ccc(Cl)cc3)c(Cc3ccccc3)nn12 | Sodium channel protein type 8 subunit alpha, C-terminal domain (SCN8A, Homo sapiens, UniProt Q9UQD0) | binding, protein thermal shift | – | 25 µM | – | delta Tm | 3.5 °C |
| O=C(COP(=O)(O)O)[C@@H](O)[C@H](O)[C@H](O)COP(=O)(O)O | Pyruvate kinase PKM (PKM, Homo sapiens, UniProt P14618) | pyruvate kinase activity, activator | MGC-803 cell lysate | without AIM | – | minimum concentration, maximal activation | 252 ± 134 nM |
| COCCOCc1ccc(-c2cc3onc(-c4ccccc4)c3c(=O)n2C)cc1 | Nuclear receptor subfamily 4 group A member 1 (NR4A1, Homo sapiens, UniProt P22736) | reporter gene, Gal4 hybrid reporter | – | 3 µM | relative to: vehicle | activation | 1.26 fold |
| Oc1ccc(/C=C/c2cc(O)cc(O)c2)cc1 | O-methyltransferase (Sorghum bicolor, UniProt A0A1B6PFV1) | – | – | concentration not given, with: SAH+ | – | ΔG of binding | -9.15 kcal/mol |
| CC(=C/C(=O)O)/C=C/C=C(\C)C1C=C2C(C)(C)CCCC2(C)O1 (stereo not drawn) | Rhodopsin (RHO, Homo sapiens, UniProt P08100, E181K) | ER retention, immunostaining co-localization, measured: opsin with calnexin | COS-7 transfected E181K | 20.00 µM | – | Pearson correlation coefficient | 0.42 |
| CCOC(F)(F)c1nnc2cnc(-c3cnc(OCC(F)(F)F)c(F)c3)cn12 | Sodium channel protein type 5 subunit alpha (SCN5A, Homo sapiens, UniProt Q14524) | persistent sodium current, patch clamp | – | with: ATX-II | – | Hill slope | 172 |

Repeated from above:
| Compound | target | test | test system | conditions | how to read | measurement | value |
| --- | --- | --- | --- | --- | --- | --- | --- |
| Oc1ccc(/C=C/c2cc(O)cc(O)c2)cc1 | O-methyltransferase (Sorghum bicolor, UniProt A0A1B6PFV1) | – | – | concentration not given, with: SAH+ | – | ΔG of binding | -9.15 kcal/mol |
| COCCOCc1ccc(-c2cc3onc(-c4ccccc4)c3c(=O)n2C)cc1 | Nuclear receptor subfamily 4 group A member 1 (NR4A1, Homo sapiens, UniProt P22736) | reporter gene, Gal4 hybrid reporter | – | 3 µM | relative to: vehicle | activation | 1.26 fold |
